Results of several laboratories.
Compare with care: the assays were run in different laboratories. ± gives the spread as reported.

SMILES	tested on	assay	test system	setting	scale	measurement	value
O=C(CCC(=O)NCCS(=O)(=O)O)NCCNC(=O)[C@@H](Cc1ccccc1)NC(=O)[C@@H](Cc1ccccc1)NC(=O)CCNc1ccc([N+](=O)[O-])c2nonc12	HeLa			200 µM, 24 h		intracellular over medium concentration	4 times
Cc1c(C)c(C)[c-](C)c1C.Cc1cccc(C)c1[N]1C(=O)c2cccc[n+]2[Ir]1[Cl]	NIH3T3	ICP-MS		10 µM, 24 h		cellular iridium uptake	105 ng/10⁶ cells
COc1cccc2c1C(=O)c1c(O)c3c(c(O)c1C2=O)CC(O)(C(=O)CO)CC3OC1CC(NC(=O)C[C@H](N)C(=O)O)C(O)C(C)O1 (stereo partly drawn)	HepG2 (LAT1-positive)	HPLC	serum-free medium	2 h	baseline: doxorubicin	cellular uptake	~3.5 fold
CC1(C)CCC2(CO)C(=C3C=CC4[C@@]5(C)CCC(O)[C@@](C)(CO)C5CC[C@@]4(C)[C@]3(C)C[C@H]2O)C1 (stereo partly drawn)	Caco-2 monolayer	Caco-2 bidirectional transport		10 µM, 3 h, 37 °C		recovery apical to basolateral	89.9%
O=C(O)C1OC(Oc2c(-c3ccccc3)oc3cc(O)ccc3c2=O)C(O)C(O)C1O (stereo not drawn)	HeLa-UGT1A9 cells	refers to: 3-O-glucuronide		0.3125 µM aglycone loading, end of excretion		intracellular glucuronide concentration	0.9 ± 0.04 µM
CCCCSC(=S)N1CCN(C(=O)/C=C/c2coc3ccccc3c2=O)CC1	tomato spotted wilt virus	viral infection, half-leaf method	Nicotiana glutinosa	500 µg/mL		curative effect	46.8 ± 7.2%
COc1ccc(C2CC(c3ccc(C)cc3)=Nc3ccccc3S2)cc1 (stereo not drawn)			Wistar rat, STZ-induced diabetes, serum	oral, 10 mg/kg once daily, 28 days		AST (SGOT)	24 ± 2.11 IU/L
CC1(C)CCC23COC4(C=CC5C6(C)CCC(O)C(C)(CO)C6CCC5(C)C4(C)CC2O)C3C1 (stereo not drawn)	Caco-2 monolayer	Caco-2 bidirectional transport		10 µM, 3 h, 37 °C		Papp apical to basolateral	8.54 ± 1.47 ×10⁻⁶ cm/s
CCSc1ncc(-c2cc(-c3ccc(Br)cc3)[nH]c(=O)c2C#N)n1Cc1ccccc1	HT-29	cell growth or viability, MTT		24 h		IC50	97 µM
Cc1cc(O)cc(O)c1C(=O)c1c2c3c(c(O)cc(C)c3oc1=O)C(=O)c1c(O)cc(O)cc1-2	Caco-2 monolayer			50 to 400 µM, 180 min, pH 7.4, basolateral to apical		Papp	0.008 to 0.138 ×10⁻⁶ cm/s
O=C(O)C1OC(Oc2ccc(-c3cc(=O)c4ccccc4o3)cc2)C(O)C(O)C1O (stereo not drawn)	HeLa-UGT1A9 cells			20 µM aglycone loading, end of excretion		intracellular glucuronide concentration	72 ± 25.1 µM
COc1ccc(C2CC(c3ccc(C)cc3)=Nc3ccccc3S2)cc1OC (stereo not drawn)			Wistar rat, STZ-induced diabetes, serum	oral, 20 mg/kg once daily, 28 days		AST (SGOT)	20.4 ± 2.29 IU/L
COc1ccc(S(=O)(=O)N(CC(=O)O)c2c(C)c(C)c(N(CC(=O)O)S(=O)(=O)c3cccnc3)c(C)c2C)cc1	H9c2	MTS		up to 50 µM, 24 h		cytotoxicity	not toxic
CCCCn1cc(C(=O)O)c(=O)c2cc(F)c3[nH]nnc3c21	SW480	cell growth, SRB		72 h		IC50	74 ± 6.66 µg/mL
CC(C)=CCc1c2c(c(O)c3c(=O)c(-c4ccc(O)cc4)coc13)CC(C(C)(C)O)O2 (stereo not drawn)	SW480	cell growth or viability, MTT		12.5 µg/mL		viability	140%
CCC1=C(CC)C2=[N+]3C1=Cc1c(CC)c(CC)c4[n]1[Ir-3]31([Cl])([C]#[O+])[n]3c(c(CC)c(CC)c3=CC3=[N+]1C(=C4)C(CC)=C3CC)=C2	NCI-H460	ICP-MS		1 µM, 2 h		cellular uptake	34.1 ± 2.8 µg iridium/g protein
COc1cc2c(cc1O)[C@]1(O)C(=O)c3c(O)cc4c(c3O[C@@H]1CO2)C=CC(C)(C)O4	SW480	cell growth or viability, MTT		100 µg/mL		viability	6.03%
CC(=O)N[C@H](C(=O)N[C@H](C(=O)N[C@@H](CCCNC(=N)N)C(=O)N1Cc2ccccc2C[C@H]1C(=O)N[C@@H](Cc1ccccc1)C(N)=O)C1CCCCC1)C(C)C	human PBMC	Bio-Plex multiplex, refers to: Eotaxin		500 µg/mL, 24 h		cytokine level	< 1.6 pg/mL
CCC(=O)N(C)c1ccc(Cl)c(Cl)c1	CHO-WBL			0.063 mg/mL, 3 h, with S9 activation		cells with multiple aberrations	0%
O=C(O)C1OC(Oc2c(-c3ccccc3O)oc3ccccc3c2=O)C(O)C(O)C1O (stereo not drawn)	HeLa-UGT1A9 cells	refers to: 3-O-glucuronide		0.625 µM aglycone loading, end of excretion		intracellular glucuronide concentration	21.4 ± 2.07 µM
CN(C)CCCSC(=S)N1CCN(C(=O)/C=C/c2coc3cc(F)ccc3c2=O)CC1	tomato spotted wilt virus	viral infection, half-leaf method	Nicotiana glutinosa	500 µg/mL		curative effect	62.7 ± 3.8%

Excerpt of the above:
SMILES	tested on	assay	test system	setting	scale	measurement	value
CN(C)CCCSC(=S)N1CCN(C(=O)/C=C/c2coc3cc(F)ccc3c2=O)CC1	tomato spotted wilt virus	viral infection, half-leaf method	Nicotiana glutinosa	500 µg/mL		curative effect	62.7 ± 3.8%
CCCCSC(=S)N1CCN(C(=O)/C=C/c2coc3ccccc3c2=O)CC1	tomato spotted wilt virus	viral infection, half-leaf method	Nicotiana glutinosa	500 µg/mL		curative effect	46.8 ± 7.2%
